{"data": "Experimental data pooled from the literature", "note": "Numbered parts are unrelated; each lists some results of a single study. “And” joins repeats or separate records; there may be more than shown.", "chain of UniProt P23458 (whole entry, looked up)": "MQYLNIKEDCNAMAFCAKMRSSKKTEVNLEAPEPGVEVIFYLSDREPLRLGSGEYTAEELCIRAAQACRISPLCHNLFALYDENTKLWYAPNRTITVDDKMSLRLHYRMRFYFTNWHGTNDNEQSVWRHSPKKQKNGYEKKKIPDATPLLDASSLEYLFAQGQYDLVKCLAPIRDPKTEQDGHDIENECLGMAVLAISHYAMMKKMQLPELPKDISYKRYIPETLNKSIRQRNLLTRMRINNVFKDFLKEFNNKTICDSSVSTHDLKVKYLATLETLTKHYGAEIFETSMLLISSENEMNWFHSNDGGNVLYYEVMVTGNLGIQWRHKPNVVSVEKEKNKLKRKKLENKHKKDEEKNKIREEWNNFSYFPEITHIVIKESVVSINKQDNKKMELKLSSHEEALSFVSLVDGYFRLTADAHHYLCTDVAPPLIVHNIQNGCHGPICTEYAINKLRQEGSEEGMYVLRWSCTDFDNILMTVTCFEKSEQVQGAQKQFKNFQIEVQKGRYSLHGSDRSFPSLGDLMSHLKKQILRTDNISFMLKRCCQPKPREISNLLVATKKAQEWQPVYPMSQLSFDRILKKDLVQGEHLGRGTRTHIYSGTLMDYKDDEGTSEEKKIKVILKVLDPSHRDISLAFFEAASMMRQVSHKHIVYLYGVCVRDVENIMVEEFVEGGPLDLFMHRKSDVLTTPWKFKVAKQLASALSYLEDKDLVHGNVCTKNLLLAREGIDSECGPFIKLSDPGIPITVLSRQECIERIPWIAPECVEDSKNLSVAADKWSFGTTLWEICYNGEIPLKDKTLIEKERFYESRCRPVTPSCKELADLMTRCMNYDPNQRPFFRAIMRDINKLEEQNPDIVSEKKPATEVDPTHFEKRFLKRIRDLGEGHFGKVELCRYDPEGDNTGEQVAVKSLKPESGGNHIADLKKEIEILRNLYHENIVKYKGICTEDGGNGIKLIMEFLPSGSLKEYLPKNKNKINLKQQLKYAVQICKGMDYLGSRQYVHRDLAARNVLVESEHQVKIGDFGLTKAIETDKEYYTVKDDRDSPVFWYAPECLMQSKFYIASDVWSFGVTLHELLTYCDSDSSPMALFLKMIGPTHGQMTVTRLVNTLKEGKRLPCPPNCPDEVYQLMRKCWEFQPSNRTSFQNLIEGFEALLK", "chain of UniProt Q13705 (whole entry, looked up)": "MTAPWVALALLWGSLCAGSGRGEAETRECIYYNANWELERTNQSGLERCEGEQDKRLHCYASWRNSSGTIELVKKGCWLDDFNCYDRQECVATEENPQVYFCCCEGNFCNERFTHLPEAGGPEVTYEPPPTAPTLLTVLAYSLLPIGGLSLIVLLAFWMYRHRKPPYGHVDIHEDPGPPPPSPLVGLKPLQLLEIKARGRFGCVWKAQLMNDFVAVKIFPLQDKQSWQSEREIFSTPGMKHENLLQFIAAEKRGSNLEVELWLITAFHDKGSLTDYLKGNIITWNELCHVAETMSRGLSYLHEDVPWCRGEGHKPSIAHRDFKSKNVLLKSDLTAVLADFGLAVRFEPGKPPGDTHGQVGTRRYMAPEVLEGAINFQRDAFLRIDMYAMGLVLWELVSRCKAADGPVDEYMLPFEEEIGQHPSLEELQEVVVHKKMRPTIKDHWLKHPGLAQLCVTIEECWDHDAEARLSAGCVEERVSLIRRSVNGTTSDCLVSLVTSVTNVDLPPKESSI", "chain of UniProt Q8TDR2 (whole entry, looked up)": "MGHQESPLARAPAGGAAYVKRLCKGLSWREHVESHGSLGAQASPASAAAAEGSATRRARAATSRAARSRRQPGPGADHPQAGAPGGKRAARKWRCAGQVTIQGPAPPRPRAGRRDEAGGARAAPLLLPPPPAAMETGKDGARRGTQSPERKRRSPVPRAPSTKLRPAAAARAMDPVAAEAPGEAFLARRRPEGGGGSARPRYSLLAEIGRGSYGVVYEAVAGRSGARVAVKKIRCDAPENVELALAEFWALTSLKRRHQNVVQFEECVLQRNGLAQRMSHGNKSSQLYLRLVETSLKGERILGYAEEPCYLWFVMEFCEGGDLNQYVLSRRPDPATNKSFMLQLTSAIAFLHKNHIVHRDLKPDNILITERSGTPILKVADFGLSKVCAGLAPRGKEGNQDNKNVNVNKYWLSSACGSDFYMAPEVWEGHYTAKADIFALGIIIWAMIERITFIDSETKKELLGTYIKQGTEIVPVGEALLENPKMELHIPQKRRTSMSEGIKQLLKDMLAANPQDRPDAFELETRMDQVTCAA", "chain of UniProt P15056 (whole entry, looked up)": "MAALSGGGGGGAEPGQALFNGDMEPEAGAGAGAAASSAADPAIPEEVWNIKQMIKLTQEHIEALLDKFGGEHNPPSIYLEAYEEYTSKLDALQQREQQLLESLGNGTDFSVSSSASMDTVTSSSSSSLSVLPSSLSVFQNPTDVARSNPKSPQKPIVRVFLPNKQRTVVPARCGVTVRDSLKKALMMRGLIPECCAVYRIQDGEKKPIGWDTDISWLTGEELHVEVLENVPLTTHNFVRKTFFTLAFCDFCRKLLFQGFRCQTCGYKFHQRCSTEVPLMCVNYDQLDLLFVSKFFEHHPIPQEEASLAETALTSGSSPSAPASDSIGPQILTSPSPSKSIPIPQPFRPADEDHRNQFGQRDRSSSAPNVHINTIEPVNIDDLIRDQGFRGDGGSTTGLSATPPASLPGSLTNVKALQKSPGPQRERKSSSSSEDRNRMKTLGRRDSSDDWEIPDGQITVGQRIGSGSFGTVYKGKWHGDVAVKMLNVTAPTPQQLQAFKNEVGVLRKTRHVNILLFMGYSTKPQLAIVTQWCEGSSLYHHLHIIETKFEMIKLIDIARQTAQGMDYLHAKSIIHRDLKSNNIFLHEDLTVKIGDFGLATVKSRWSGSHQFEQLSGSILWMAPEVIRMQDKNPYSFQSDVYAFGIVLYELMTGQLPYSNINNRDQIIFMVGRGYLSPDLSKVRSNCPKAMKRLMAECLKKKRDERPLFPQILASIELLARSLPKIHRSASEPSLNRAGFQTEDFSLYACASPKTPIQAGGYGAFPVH", "chain of UniProt P11802 (whole entry, looked up)": "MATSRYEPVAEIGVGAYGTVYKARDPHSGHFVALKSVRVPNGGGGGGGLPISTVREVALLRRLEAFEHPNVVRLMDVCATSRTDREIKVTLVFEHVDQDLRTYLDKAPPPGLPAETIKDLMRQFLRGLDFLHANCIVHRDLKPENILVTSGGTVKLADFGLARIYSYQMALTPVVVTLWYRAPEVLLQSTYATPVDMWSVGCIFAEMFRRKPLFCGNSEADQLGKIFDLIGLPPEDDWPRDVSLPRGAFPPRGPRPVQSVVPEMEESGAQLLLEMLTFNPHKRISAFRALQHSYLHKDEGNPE"}
{"data": "Block 1", "cell line": "mouse MPNST tumor cells", "method": "high-content immunofluorescence imaging", "item": "nuclear SOX9", "tested at": "10 µM", "time": "12 h", "notes": "mean of 2 replicates", "baseline": "DMSO control", "reading": "higher = more nuclear SOX9"}
{"SMILES": "Cc1ccc(-c2ccc(F)cc2COc2ccc(CCC(=O)O)cc2)cc1", "nuclear SOX9 intensity": "108 % of DMSO"}
{"SMILES": "Clc1ccc2nsnc2c1NC1=NCCN1", "nuclear SOX9 intensity": "108 % of DMSO and 106 % of DMSO"}
{"SMILES": "CC(C)(O)C(=O)N1CCN(c2ccc(C(F)(F)F)c(C3=C(c4c[nH]c5ccccc45)C(=O)NC3=O)c2)CC1", "nuclear SOX9 intensity": "179 % of DMSO"}
{"SMILES": "CO[C@H]1C[C@H](O[C@H]2[C@H](C)[C@@H](O[C@@H]3O[C@H](C)C[C@H](N(C)C)[C@H]3OC(C)=O)[C@@H](C)C[C@@]3(CO3)C(=O)[C@H](C)[C@@H](OC(C)=O)[C@@H](C)[C@@H](C)OC(=O)[C@@H]2C)O[C@@H](C)[C@@H]1OC(C)=O", "nuclear SOX9 intensity": "107 % of DMSO"}
{"SMILES": "Cc1ccnc2c1NC(=O)c1cccnc1N2C1CC1", "nuclear SOX9 intensity": "95.3 % of DMSO"}
{"SMILES": "O=C(O)CNC(=O)C(CS)Cc1ccccc1 (stereo not drawn)", "nuclear SOX9 intensity": "88.9 % of DMSO"}
{"SMILES": "CC(C)CCn1c(CN2CCN(C(=O)C3CC3)CC2)nc2c1c(=O)n(C)c(=O)n2C", "nuclear SOX9 intensity": "98.1 % of DMSO"}
{"SMILES": "CCCN(CCC)S(=O)(=O)c1ccc(C(=O)O)cc1", "nuclear SOX9 intensity": "86 % of DMSO and 91.7 % of DMSO and 101 % of DMSO"}
{"SMILES": "Cc1cc(C)c2c(N)c(C(=O)NCc3ccc(Cl)cc3)sc2n1", "nuclear SOX9 intensity": "105 % of DMSO"}
{"SMILES": "CC(=O)c1cc([N+](=O)[O-])c(Sc2ccc(F)cc2F)s1", "nuclear SOX9 intensity": "71.2 % of DMSO"}
{"SMILES": "COc1ccc(CCNCc2ccc(OCc3ccc(Cl)nc3)c(OC)c2)cc1OC", "nuclear SOX9 intensity": "132 % of DMSO"}
{"data": "Block 2", "target": "Calcium/calmodulin-dependent protein kinase type II subunit alpha (CAMK2A, Homo sapiens, UniProt Q9UQM7)", "observed": "enzyme activity", "action": "inhibitor", "tested at": "10 µM", "chain of UniProt Q9UQM7 (whole entry, looked up)": "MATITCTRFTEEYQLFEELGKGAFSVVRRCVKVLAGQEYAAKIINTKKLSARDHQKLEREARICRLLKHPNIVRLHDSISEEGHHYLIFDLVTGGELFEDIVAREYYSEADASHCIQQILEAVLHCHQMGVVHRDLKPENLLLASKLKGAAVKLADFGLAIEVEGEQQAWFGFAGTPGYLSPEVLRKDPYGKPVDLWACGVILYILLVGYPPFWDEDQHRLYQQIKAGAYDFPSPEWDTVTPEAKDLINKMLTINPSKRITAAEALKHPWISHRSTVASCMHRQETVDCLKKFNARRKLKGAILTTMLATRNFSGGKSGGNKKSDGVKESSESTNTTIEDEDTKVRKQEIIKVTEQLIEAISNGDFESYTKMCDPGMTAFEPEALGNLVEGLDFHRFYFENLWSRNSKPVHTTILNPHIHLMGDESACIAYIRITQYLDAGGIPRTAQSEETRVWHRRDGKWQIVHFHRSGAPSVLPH"}
{"Compound": "COC(=O)N[C@@H](C)CNc1nccc(-c2cn(C(C)C)nc2-c2cc(Cl)cc(NS(C)(=O)=O)c2F)n1", "inhibition": "-2%"}
{"Compound": "C[C@@H]1CC[C@H]2[C@@H](C)C(O)O[C@@H]3O[C@@]4(C)CC[C@@H]1[C@]32OO4 (stereo partly drawn)", "inhibition": "-1%"}
{"Compound": "OCC(O)[C@@H](O)[C@H](O)[C@H](O)CO[C@H]1O[C@H](CO)[C@@H](O)[C@H](O)[C@H]1O (stereo partly drawn)", "inhibition": "-41%"}
{"Compound": "COc1cc(/C=C/C(=O)O)cc(OC)c1OC", "inhibition": "-64%"}
{"Compound": "CSC[C@H](N)C(=O)O", "inhibition": "-10%"}
{"Compound": "C[C@@H]1O[C@@H](OC[C@H]2O[C@@H](Oc3c(-c4ccc(O)cc4)oc4cc(O)cc(O)c4c3=O)[C@H](O[C@@H]3O[C@@H](C)[C@H](O)[C@@H](O)[C@H]3O)[C@@H](O)[C@H]2O)[C@H](O)[C@H](O)[C@H]1O", "inhibition": "-38%"}
{"Compound": "O=C(O)c1ccc(O)c(O)c1", "inhibition": "-45%"}
{"Compound": "C=CC(C)(O)CCC=C(C)CCC=C(C)C (mixture of isomers)", "inhibition": "-15%"}
{"Compound": "CCCCCCCCCCCCCCCC(=O)OC", "inhibition": "11%"}
{"Compound": "CCOC(=O)[C@@H](N)Cc1ccc(-c2cc(O[C@H](c3ccc(Cl)cc3-n3ccc(C)n3)C(F)(F)F)nc(N)n2)cc1", "inhibition": "-0.15% and -0.05%"}
{"Compound": "C[C@H](CC[C@@H](O[C@@H]1O[C@H](CO)[C@@H](O)[C@H](O)[C@H]1O[C@@H]1O[C@H](CO)[C@@H](O)[C@H](O)[C@H]1O)C(C)(C)O)[C@H]1CC[C@@]2(C)[C@H]3CC=C4[C@@H](CC[C@H](O[C@@H]5O[C@H](CO[C@@H]6O[C@H](CO)[C@@H](O)[C@H](O)[C@H]6O)[C@@H](O)[C@H](O)[C@H]5O)C4(C)C)[C@]3(C)[C@H](O)C[C@]12C", "inhibition": "-31%"}
{"Compound": "NS(=O)(=O)c1cc2c(cc1Cl)N=C(CSCc1ccccc1)NS2(=O)=O", "inhibition": "-3%"}
{"Compound": "C=CC(=O)N1CCN(c2nc(=O)n(-c3c(C)ccnc3C(C)C)c3nc(-c4c(O)cccc4F)c(F)cc23)[C@@H](C)C1 (racemic)", "inhibition": "-0.05%"}
{"Compound": "O=C(/C=C/c1ccc(O)cc1)NCCc1ccc(O)cc1", "inhibition": "-15%"}
{"Compound": "COC(=O)/C=C/c1ccccc1", "inhibition": "-56%"}
{"Compound": "O=P(O)(O)O[C@H]1O[C@H](CO)[C@@H](O)[C@H](O)[C@H]1O", "inhibition": "30%"}
{"Compound": "C=CCOc1ccccc1OCC(O)CNC(C)C (stereo not drawn)", "inhibition": "-14%"}
{"data": "Block 3", "target": "Mitogen-activated protein kinase kinase kinase 9 (MAP3K9, Homo sapiens, UniProt P80192)", "observed": "enzyme activity", "action": "inhibitor", "tested at": "0.5 µM", "baseline": "control", "chain of UniProt P80192 (whole entry, looked up)": "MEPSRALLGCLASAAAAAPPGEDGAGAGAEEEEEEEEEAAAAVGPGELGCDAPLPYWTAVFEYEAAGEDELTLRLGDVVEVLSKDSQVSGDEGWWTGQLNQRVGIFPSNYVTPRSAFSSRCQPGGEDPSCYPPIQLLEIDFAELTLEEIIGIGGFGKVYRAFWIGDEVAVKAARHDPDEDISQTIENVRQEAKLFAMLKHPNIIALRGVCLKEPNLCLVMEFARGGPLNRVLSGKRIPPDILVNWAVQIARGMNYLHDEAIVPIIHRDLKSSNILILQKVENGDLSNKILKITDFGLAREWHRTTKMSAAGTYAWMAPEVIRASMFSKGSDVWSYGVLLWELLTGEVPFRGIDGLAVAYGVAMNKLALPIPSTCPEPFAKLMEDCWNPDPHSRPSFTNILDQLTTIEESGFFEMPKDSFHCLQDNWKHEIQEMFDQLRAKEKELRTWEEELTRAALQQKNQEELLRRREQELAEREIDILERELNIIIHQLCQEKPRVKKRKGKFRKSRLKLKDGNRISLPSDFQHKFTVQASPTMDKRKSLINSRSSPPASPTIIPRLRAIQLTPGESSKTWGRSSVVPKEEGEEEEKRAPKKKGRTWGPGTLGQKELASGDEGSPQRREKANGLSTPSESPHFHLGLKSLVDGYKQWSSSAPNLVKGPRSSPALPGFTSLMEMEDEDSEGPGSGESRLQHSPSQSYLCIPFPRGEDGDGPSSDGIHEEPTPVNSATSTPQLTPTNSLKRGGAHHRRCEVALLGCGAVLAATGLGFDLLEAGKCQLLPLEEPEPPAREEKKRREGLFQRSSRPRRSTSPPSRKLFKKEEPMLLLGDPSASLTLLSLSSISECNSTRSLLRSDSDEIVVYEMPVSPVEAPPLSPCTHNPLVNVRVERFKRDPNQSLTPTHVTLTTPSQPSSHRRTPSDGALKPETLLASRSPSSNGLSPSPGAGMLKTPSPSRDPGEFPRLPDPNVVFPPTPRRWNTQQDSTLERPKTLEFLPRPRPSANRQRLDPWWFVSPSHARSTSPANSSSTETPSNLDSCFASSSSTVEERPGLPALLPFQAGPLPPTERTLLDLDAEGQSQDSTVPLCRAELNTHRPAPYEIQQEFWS"}
{"SMILES": "Cn1cnc2cc3c(Nc4cccc(Br)c4)ncnc3cc21", "remaining activity [%]": 79.8}
{"SMILES": "CC(=O)O/N=C1/C(c2c(O)[nH]c3cc(Br)ccc23)=Nc2ccccc21", "remaining activity [%]": 51.5}
{"SMILES": "COc1cc2ncc(-c3ccccc3)nc2cc1OC", "remaining activity [%]": 85.4}
{"SMILES": "Cc1ccc(NC(=O)c2ccc(CN3CCN(C)CC3)cc2)cc1Nc1nccc(-c2cccnc2)n1", "remaining activity [%]": 102}
{"SMILES": "CS(=O)(=O)CCNCc1ccc(-c2ccc3ncnc(Nc4ccc(OCc5cccc(F)c5)c(Cl)c4)c3c2)o1", "remaining activity [%]": 112}
{"SMILES": "COc1ccc(Cl)cc1NC(=O)Nc1cc(C)nc2ccccc12", "remaining activity [%]": 98.6}
{"SMILES": "COc1cc2ncnc(N3CCN(C(=O)Nc4ccc(Oc5ccccc5)cc4)CC3)c2cc1OC", "remaining activity [%]": 100}
{"SMILES": "CCN1/C(=C/C(C)=O)Sc2ccc(OC)cc21", "remaining activity [%]": 98.8}
{"SMILES": "C[S+]([O-])c1ccc(-c2nc(-c3ccncc3)c(-c3ccc(F)cc3)[nH]2)cc1 (stereo not drawn)", "remaining activity [%]": 95}
{"SMILES": "CC(C)[C@H](CO)Nc1nc(Nc2cccc(Cl)c2)c2ncn(C(C)C)c2n1", "remaining activity [%]": 37.8}
{"SMILES": "CN(C)CCCn1cc(C2=C(c3c[nH]c4ccccc34)C(=O)NC2=O)c2ccccc21", "remaining activity [%]": 46}
{"SMILES": "Cc1nc(Nc2ncc(C(=O)Nc3c(C)cccc3Cl)s2)cc(N2CCN(CCO)CC2)n1", "remaining activity [%]": 99.6}
{"SMILES": "O=C1NC(=O)/C(=C/c2ccc3nccnc3c2)S1", "remaining activity [%]": 102}
{"SMILES": "Cn1cc(/C=C2\\C(=O)Nc3ccc(S(N)(=O)=O)cc32)c2ccccc21", "remaining activity [%]": 28.1}
{"SMILES": "O=C(Nc1ccc(Cl)cc1)c1ccccc1NCc1ccncc1", "remaining activity [%]": 89}
{"SMILES": "COc1ccc(-c2cnc3c(-c4ccsc4)cnn3c2)cc1", "remaining activity [%]": 65.6}
{"SMILES": "CC(C)c1nn(-c2c(Cl)cccc2Cl)c2nc(Cc3ccc(OCCO)cc3)[nH]c(=O)c12", "remaining activity [%]": 95.7}
{"SMILES": "Nc1[nH]nc2nnc(-c3c(-c4ccccc4)nn4ccccc34)cc12", "remaining activity [%]": 99.9}
{"SMILES": "COc1cc2ncnc(Nc3ccc(OCc4ccccc4)cc3)c2cc1OC", "remaining activity [%]": 96.5}
{"SMILES": "CCC(=O)Nc1ccc2ncnc(Nc3cccc(Br)c3)c2c1", "remaining activity [%]": 92.7}
{"SMILES": "CCOc1cc2ncnc(Nc3cccc(Br)c3)c2cc1OCC", "remaining activity [%]": 96.1}
{"SMILES": "O=c1cc(N2CCOCC2)oc2c1ccc1ccccc12", "remaining activity [%]": 111}
{"data": "Block 4", "SMILES": "CC(=O)c1c(NS(C)(=O)=O)c2cc(-c3ccc(Cl)cc3)c(-c3ccc(Cl)cc3Cl)nc2n(C)c1=O", "observed": "cell-free assay", "method": "competition with immobilised ligand", "tested at": "1 µM"}
{"target": "DAPK2 (Homo sapiens, UniProt Q9UIK4)", "remaining binding [%]": 100}
{"target": "MAPK3 (Homo sapiens, UniProt P27361)", "remaining binding [%]": 100}
{"target": "SRPK3 (Homo sapiens, UniProt Q9UPE1)", "remaining binding [%]": 100}
{"target": "CDK9 (Homo sapiens, UniProt P50750)", "remaining binding [%]": 91}
{"target": "EGFR (Homo sapiens, UniProt P00533, G719C)", "remaining binding [%]": 100}
{"target": "STK17B (Homo sapiens, UniProt O94768)", "remaining binding [%]": 100}
{"target": "CDK7 (Homo sapiens, UniProt P50613)", "remaining binding [%]": 82}
{"target": "GSK3A (Homo sapiens, UniProt P49840)", "remaining binding [%]": 75}
{"target": "CDK4 (Homo sapiens, UniProt P11802)", "remaining binding [%]": 63}
{"target": "STK24 (Homo sapiens, UniProt Q9Y6E0)", "remaining binding [%]": 97}
{"target": "FLT3 (Homo sapiens, UniProt P36888, N841I)", "remaining binding [%]": 100}
{"target": "SGK1 (Homo sapiens, UniProt O00141)", "remaining binding [%]": 100}
{"target": "ALK (Homo sapiens, UniProt Q9UM73)", "remaining binding [%]": 95}
{"target": "Ribosomal protein S6 kinase alpha-5, C-terminal kinase domain (RPS6KA5, Homo sapiens, UniProt O75582)", "remaining binding [%]": 72}
{"target": "RET (Homo sapiens, UniProt P07949, V804M)", "remaining binding [%]": 100}
{"target": "PIK3CA (Homo sapiens, UniProt P42336, E545K)", "remaining binding [%]": 91}
{"target": "CDK11B (Homo sapiens, UniProt P21127)", "remaining binding [%]": 84}
{"target": "MAPK6 (Homo sapiens, UniProt Q16659)", "remaining binding [%]": 100}
{"target": "TYRO3 (Homo sapiens, UniProt Q06418)", "remaining binding [%]": 64}
{"target": "ACVR2B (Homo sapiens, UniProt Q13705)", "remaining binding [%]": 100}
{"target": "DAPK1 (Homo sapiens, UniProt P53355)", "remaining binding [%]": 80}
{"target": "Tyrosine-protein kinase JAK1, JH2 (JAK1, Homo sapiens, UniProt P23458)", "remaining binding [%]": 93}
{"target": "BRAF (Homo sapiens, UniProt P15056)", "remaining binding [%]": 90}
{"target": "STK35 (Homo sapiens, UniProt Q8TDR2)", "remaining binding [%]": 100}
{"target": "ANKK1 (Homo sapiens, UniProt Q8NFD2)", "remaining binding [%]": 70}
{"note": "A few entries again (block 3):"}
{"SMILES": "Cn1cc(/C=C2\\C(=O)Nc3ccc(S(N)(=O)=O)cc32)c2ccccc21", "remaining activity [%]": 28.1}
{"SMILES": "CCN1/C(=C/C(C)=O)Sc2ccc(OC)cc21", "remaining activity [%]": 98.8}
{"SMILES": "O=c1cc(N2CCOCC2)oc2c1ccc1ccccc12", "remaining activity [%]": 111}
{"SMILES": "CC(C)[C@H](CO)Nc1nc(Nc2cccc(Cl)c2)c2ncn(C(C)C)c2n1", "remaining activity [%]": 37.8}
{"SMILES": "COc1ccc(-c2cnc3c(-c4ccsc4)cnn3c2)cc1", "remaining activity [%]": 65.6}
{"SMILES": "COc1ccc(Cl)cc1NC(=O)Nc1cc(C)nc2ccccc12", "remaining activity [%]": 98.6}
{"SMILES": "CCC(=O)Nc1ccc2ncnc(Nc3cccc(Br)c3)c2c1", "remaining activity [%]": 92.7}
{"SMILES": "Nc1[nH]nc2nnc(-c3c(-c4ccccc4)nn4ccccc34)cc12", "remaining activity [%]": 99.9}
{"SMILES": "CC(C)c1nn(-c2c(Cl)cccc2Cl)c2nc(Cc3ccc(OCCO)cc3)[nH]c(=O)c12", "remaining activity [%]": 95.7}
{"SMILES": "CN(C)CCCn1cc(C2=C(c3c[nH]c4ccccc34)C(=O)NC2=O)c2ccccc21", "remaining activity [%]": 46}
{"SMILES": "Cc1nc(Nc2ncc(C(=O)Nc3c(C)cccc3Cl)s2)cc(N2CCN(CCO)CC2)n1", "remaining activity [%]": 99.6}
{"SMILES": "COc1cc2ncnc(N3CCN(C(=O)Nc4ccc(Oc5ccccc5)cc4)CC3)c2cc1OC", "remaining activity [%]": 100}
{"SMILES": "Cc1ccc(NC(=O)c2ccc(CN3CCN(C)CC3)cc2)cc1Nc1nccc(-c2cccnc2)n1", "remaining activity [%]": 102}
